# Assay results from different studies.
# A part holds a random share of what one study measured. Changes are numbered by the printed parent chain.

# Set 1 — technique: protein binding microarray; form: double-stranded DNA, one strand shown; matrix: in vitro; tested at: not given; relative to: not given; reading: higher = stronger binding
# Target: Histone acetyltransferase KAT6A, winged helix 2, GST fusion (KAT6A, Homo sapiens, UniProt Q92794, residues 85-181)
# Setting: 8-mer, flanks averaged, mean of 2 arrays, mostly near background
# Construct (chain): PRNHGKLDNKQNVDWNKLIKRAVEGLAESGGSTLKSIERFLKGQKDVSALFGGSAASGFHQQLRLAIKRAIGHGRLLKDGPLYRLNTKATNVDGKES
Sequence,E-score
ACGACCCA,0.00701
AGAGAGGA,-0.0189
CAACTCAC,0.134
GATATCAC,-0.0631
CAGAATGC,0.102
GACAGCTC,-0.102
ATTAGCCA,0.0232
CCTGTTAG,-0.0612
GCTGGTTA,-0.0211

# Set 2 — technique: DHFR PCA, deep sequencing; matrix: yeast; with: (+)-ABA 0.11 µM; relative to: wild-type fitted maximum; reading: higher = stronger binding
# Target: ABI1, truncated, D143A, DHFR fusion (Arabidopsis thaliana)
# Setting: methotrexate growth selection, single substitutions
# Parent: PYL1, truncated, DHFR fusion (Arabidopsis thaliana); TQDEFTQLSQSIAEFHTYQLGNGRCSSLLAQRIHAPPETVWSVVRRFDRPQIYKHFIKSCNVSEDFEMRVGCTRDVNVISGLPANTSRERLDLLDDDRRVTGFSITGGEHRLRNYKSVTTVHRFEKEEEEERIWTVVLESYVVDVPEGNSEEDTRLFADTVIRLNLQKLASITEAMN; partner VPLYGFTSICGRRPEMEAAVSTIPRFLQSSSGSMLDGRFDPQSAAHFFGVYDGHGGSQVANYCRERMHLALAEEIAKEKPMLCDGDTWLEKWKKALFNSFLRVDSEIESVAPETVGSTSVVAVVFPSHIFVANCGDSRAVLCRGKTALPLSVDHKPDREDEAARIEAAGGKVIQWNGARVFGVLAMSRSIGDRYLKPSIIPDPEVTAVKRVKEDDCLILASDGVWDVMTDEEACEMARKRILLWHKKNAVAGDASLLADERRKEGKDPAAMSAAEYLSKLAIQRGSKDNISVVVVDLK
Change,relative binding score
S59G,8.11%
C25D,-5.89%
V70F,-5.79%
D95V,-6.9%
L91R,-0.919%
H34V,2.86%

# Set 3 — target: CCNA1, cyclin fold, Cln2 fusion (human); technique: yeast growth competition, sequencing; matrix: yeast; setting: weak parent motif; relative to: not given; reading: higher = stronger binding
# Parent: PKN2 docking peptide (human); VSAVQKLDFSDTM; partner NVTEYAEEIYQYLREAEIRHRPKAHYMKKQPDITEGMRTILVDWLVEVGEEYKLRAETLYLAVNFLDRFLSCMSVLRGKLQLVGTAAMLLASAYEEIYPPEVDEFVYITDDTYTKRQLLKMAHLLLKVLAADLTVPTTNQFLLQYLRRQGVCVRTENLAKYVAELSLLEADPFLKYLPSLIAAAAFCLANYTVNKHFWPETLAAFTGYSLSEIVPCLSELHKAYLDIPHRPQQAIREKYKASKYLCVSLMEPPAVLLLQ
Change,normalised enrichment score
VSAMQKLDFSDTM [V4M],0.278
VSAVQKLDFSDTG [M13G],0.303
LSAVQKLDFSDTM [V1L],0.269
VLAVQKLDFSDTM [S2L],0.234
VSAVQKLDFEDTM [S10E],0.501
VSAVQKLDFSFTM [D11F],0.0662
VSAVQKLDQSDTM [F9Q],0.231
VSAVQKLDSSDTM [F9S],0.582
ESAVQKLDFSDTM [V1E],0.0471

# Mixed results
Molecule,target,test,test system,setting,scale,quantity,value
"PhoQ, residues 284 288 289 292 302 303 GTAMQF","PhoP, residues 12 14 15 18 19 LHSVW (Escherichia coli, UniProt P23836)","Sort-seq, measured: YFP reporter",E. coli,"PhoQ-PhoP variant library, with: 10 µM Mg2+","relative to: high Mg2+ state, higher = stronger signaling",fold induction,15.8

# Some of these lines once more (set 3):
Change,normalised enrichment score
VSAMQKLDFSDTM [V4M],0.278
VSAVQKLDFSDTG [M13G],0.303
